{"data": "Assay results gathered from unrelated publications", "note": "Numbered parts are unrelated; each lists some results of a single study."}
{"data": "Sample 1", "target": "Centromere-binding protein 1, full length, His-tagged (CBF1, Saccharomyces cerevisiae, UniProt P17106, residues 1-351)", "technique": "competition protein-binding microarray", "form": "double-stranded DNA, one strand shown", "sample": "in vitro", "tested at": "2 µM", "notes": "whole 60-bp probe, lowest competitor level", "added": "Pho4 competitor, 0.05 µM", "direction": "higher = stronger binding", "chain of UniProt P17106 (whole entry, looked up)": "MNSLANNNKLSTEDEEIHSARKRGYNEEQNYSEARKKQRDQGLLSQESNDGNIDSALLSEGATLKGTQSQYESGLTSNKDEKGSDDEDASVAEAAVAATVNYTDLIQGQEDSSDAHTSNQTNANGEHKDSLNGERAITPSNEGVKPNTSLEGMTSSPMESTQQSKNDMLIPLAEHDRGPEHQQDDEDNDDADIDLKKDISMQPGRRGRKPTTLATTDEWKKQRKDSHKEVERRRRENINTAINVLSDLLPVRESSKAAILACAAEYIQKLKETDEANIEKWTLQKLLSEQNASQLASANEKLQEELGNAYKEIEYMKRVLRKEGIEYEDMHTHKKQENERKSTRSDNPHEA"}
{"Strand": "CAATGGCTCAGTAACCTCGTGATGGAAAAAGGGCAAGTCTTGATTCGCTTGACGCTGCTG", "fluorescence intensity [a.u.]": 525}
{"Strand": "ATTGAGAATAGTCATCAGGTGTAATGGAAGCTAATTGTCTTGATTCGCTTGACGCTGCTG", "fluorescence intensity [a.u.]": 154}
{"Strand": "GGGGACACCAGTTATCATGTTGTCAACCAAAGACTTGTCTTGATTCGCTTGACGCTGCTG", "fluorescence intensity [a.u.]": 72.7}
{"Strand": "CTTTCCCGATCTTGTCACACCACTTTAGCACATTTGGTCTTGATTCGCTTGACGCTGCTG", "fluorescence intensity [a.u.]": 123}
{"data": "Sample 2", "target": "Histone acetyltransferase KAT6A, both winged helices, GST fusion (KAT6A, Homo sapiens, UniProt Q92794, residues 1-181)", "technique": "protein binding microarray", "form": "double-stranded DNA, one strand shown", "sample": "in vitro", "tested at": "not given", "notes": "8-mer, flanks averaged, mean of 2 arrays, mostly near background", "relative to": "not given", "direction": "higher = stronger binding", "Construct (chain)": "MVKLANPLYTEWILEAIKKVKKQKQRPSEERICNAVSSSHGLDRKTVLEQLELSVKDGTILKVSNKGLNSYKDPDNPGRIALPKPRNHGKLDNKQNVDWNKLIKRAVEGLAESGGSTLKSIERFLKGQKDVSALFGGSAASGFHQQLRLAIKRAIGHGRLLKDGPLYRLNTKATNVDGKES"}
{"Strand": "AATGTAGA", "E-score": -0.0848}
{"Strand": "GAGAGTAA", "E-score": -0.162}
{"Strand": "AGCGTTAA", "E-score": 0.0554}
{"Strand": "AGCAAGAC", "E-score": 0.0118}
{"data": "Sample 3", "target": "Sal-like protein 4, full length isoform B (SALL4, Homo sapiens, UniProt Q9UJQ4-2, residues 1-616)", "technique": "universal PBM", "form": "double-stranded DNA, one strand shown", "sample": "in vitro", "tested at": "not given", "notes": "8-mer, flanks averaged, mean of replicates", "direction": "higher = stronger binding", "Target sequence (chain)": "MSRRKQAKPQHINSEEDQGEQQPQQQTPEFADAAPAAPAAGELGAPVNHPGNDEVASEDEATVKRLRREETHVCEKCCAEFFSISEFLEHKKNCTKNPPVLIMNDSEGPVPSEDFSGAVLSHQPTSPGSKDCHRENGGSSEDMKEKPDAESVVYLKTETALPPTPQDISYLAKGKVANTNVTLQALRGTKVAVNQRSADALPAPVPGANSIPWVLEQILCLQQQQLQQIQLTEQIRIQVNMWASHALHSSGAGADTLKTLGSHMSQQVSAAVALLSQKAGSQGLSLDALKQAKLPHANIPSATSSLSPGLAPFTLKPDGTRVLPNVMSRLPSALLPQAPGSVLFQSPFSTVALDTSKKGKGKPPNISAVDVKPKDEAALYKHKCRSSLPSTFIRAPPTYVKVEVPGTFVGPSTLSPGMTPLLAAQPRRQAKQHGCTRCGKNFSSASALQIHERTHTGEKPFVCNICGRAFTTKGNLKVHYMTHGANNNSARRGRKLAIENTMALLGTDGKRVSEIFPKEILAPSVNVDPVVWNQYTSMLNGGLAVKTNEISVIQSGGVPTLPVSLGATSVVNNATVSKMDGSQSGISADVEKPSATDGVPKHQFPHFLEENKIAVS"}
{"Strand": "AGTAGCCG", "E-score": -0.177}
{"Strand": "ACACGCGC", "E-score": -0.179}
{"Strand": "TACGATCA", "E-score": 0.192}
{"Strand": "ATTTAACA", "E-score": 0.25}
{"data": "Mixed results"}
{"Substance": "PhoQ, residues 284 288 289 292 302 303 QWGLFV", "target": "PhoP, residues 12 14 15 18 19 NNFVT (Escherichia coli, UniProt P23836)", "assay": "Sort-seq, item: YFP reporter", "system": "E. coli", "setting": "PhoQ-PhoP variant library, added: 10 µM Mg2+", "how to read": "relative to: high Mg2+ state, higher = stronger signaling", "measurement": "fold induction", "value": 1.36}
{"note": "For quick reference, copied from above (sample 3):"}
{"Strand": "ATTTAACA", "E-score": 0.25}
{"Strand": "ACACGCGC", "E-score": -0.179}
